Assay results collected from several papers.
Lines come from different studies, so protocols differ. Several values in a cell are separate wells, animals, samples, runs or records.
Target: Protein kinase C zeta type (PRKCZ, Homo sapiens, UniProt Q05513)
Residues used in one study (Q05513 1-592): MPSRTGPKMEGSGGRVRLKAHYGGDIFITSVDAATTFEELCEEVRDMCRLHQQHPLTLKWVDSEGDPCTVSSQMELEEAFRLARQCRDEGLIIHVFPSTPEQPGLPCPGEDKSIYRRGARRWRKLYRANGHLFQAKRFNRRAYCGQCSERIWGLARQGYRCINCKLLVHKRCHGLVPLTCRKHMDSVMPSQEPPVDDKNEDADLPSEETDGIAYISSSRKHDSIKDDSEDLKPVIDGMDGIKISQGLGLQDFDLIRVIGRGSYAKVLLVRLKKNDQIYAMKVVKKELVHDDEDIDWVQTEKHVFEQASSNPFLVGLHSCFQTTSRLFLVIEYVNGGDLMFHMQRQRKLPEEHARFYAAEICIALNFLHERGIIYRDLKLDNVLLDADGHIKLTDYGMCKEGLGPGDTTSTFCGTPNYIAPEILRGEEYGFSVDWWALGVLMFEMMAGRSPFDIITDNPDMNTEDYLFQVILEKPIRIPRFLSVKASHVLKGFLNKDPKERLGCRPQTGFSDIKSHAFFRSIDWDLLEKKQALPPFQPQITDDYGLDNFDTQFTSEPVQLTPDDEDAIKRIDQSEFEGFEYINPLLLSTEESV

COc1ccc(NC(=O)Nc2ccc3c(c2)C(=O)N(C(C)CO)CC(C)C(CN(C)Cc2ccc4c(c2)OCO4)O3)cc1 (stereo not drawn)  remaining activity (kinase activity, KinaseProfiler; 0.03 µM, species human; baseline: control): 96%
O=C=[N][Ru-4]123([n]4c5ccc(O)cc5c5c6c(c7cc(F)c[n+]1c7c54)C(=O)NC6=O)[S+]1CC[S+]2CC[S+]3CC1 (stereo not drawn)  remaining activity (enzyme activity; 100 nM, human enzyme, together with: 10 µM ATP; baseline: untreated): 96%
O=c1c(-c2ccc(Cl)c(CN3CCOCC3)c2)coc2cc(O)ccc12  remaining activity (enzyme activity, inhibitor; 1 µM): 107%
Cc1ccc(C)c(-c2ccc3nc(NC(=O)C4CCCCC4)nn3c2)c1  remaining activity (enzyme activity, Dundee kinase panel; 10 µM): 76%
CN1CCN(Cc2ccc(-c3ccc(CO[C@H]4CCC[C@@H]4NC(=O)c4cc(-c5cnn(C)c5)cnc4N)cc3)cc2)CC1  inhibition (enzyme activity, inhibitor; 0.1 µM): 6%
Cc1cccc(-c2ccc3nc(NC(=O)C4CCCCC4)nn3c2)c1  remaining activity (enzyme activity, Dundee kinase panel; 10 µM): 85%
Cc1cccc(O[C@H]2CCC[C@@H](C(C)CNCc3ccncc3)C2)c1 (relative stereo)  inhibition (enzyme activity; 10 µM): -16%
O=C(Cc1ccc(OCc2ccccc2)cc1)NC1(C(=O)O)CCN(C(=O)c2ccc(-c3cccc(Cl)c3)cc2)CC1  activity vs control (enzyme activity, inhibitor; 10 µM): 101%
NC(=O)C[C@H]1CCc2sc3ncnc(O[C@H]4CC[C@H](N5CCOCC5)CC4)c3c21  inhibition (enzyme activity, inhibitor; 10 µM): -1%
Nc1ncc(-c2cc(-c3cnn(CC(F)(F)F)c3)ncc2F)nc1C(=O)NC1CNCC(F)C1 (stereo not drawn)  remaining activity (enzyme activity; 1 µM; baseline: DMSO control): 96.2%
C=CC(=O)Nc1cccc(-c2cnc3[nH]cc(C(=O)NC(C)(C)C)c3n2)c1  inhibition (kinase activity; 0.1 µM): -7% and -11%
CN1CC[C@@H](COc2cnc(C#N)cc2-c2ccn3nc(NC(=O)C4CC4)cc3c2)C1  inhibition (enzyme activity, inhibitor; 1 µM): 1%

Repeated from above:
CN1CCN(Cc2ccc(-c3ccc(CO[C@H]4CCC[C@@H]4NC(=O)c4cc(-c5cnn(C)c5)cnc4N)cc3)cc2)CC1  inhibition (enzyme activity, inhibitor; 0.1 µM): 6%
